Experimental data collected from several papers.
A part holds a random share of what one study measured.

Block 1
Target: Fragile X messenger ribonucleoprotein 1, C-terminal low-complexity region (Fmr1, Mus musculus, UniProt P35922)
Technique: RNA Bind-n-Seq
Form: RNA
Sample: in vitro
Tested at: 200 nM
Setting: whole 134-nt RNA, ends assumed
With: 150 mM LiCl
Baseline: input library
Reading: higher = stronger binding
Endpoint: log2 enrichment
Library: 7-deaza-guanosine replaces G
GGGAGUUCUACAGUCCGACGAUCUCCUGUGCUACACAUCGUAUGUACCGAAUCGGGGAAAAAAGGAAAAAAGGGAAAAAAGGAAAGUAUUAUGUUACGCCGUUCGGAUCUGCAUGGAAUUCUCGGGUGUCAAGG: 0.108
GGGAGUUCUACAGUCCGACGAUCCCAGGAAGUAAAAACAAAUGGAAAUGCUUCGGAUAGUGGCAGGGGUGGGGGUUGCUAAGGAAAGGGUGGGAUGGGAGUGGGUAAAGAGUUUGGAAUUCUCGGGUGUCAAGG: 0.935
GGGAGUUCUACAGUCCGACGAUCGUCCUGUGCUACACAUCGUAUGUACCGAAUCGGGGUUUGGGGAAAAAAAGGGGAGGGGAAAGUAUUAUGUUACGCCGUUCGGAUCUGCACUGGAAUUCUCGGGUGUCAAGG: 0.0927
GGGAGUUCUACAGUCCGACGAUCUGGCGCUGGUGGCAUGCGGGGAGGAAGAGGUGGCCUCAUGGAUCGUGGUGGUCCCGGUGGAAUGUUCAGAGGUGGCCGUGGUGGAGACAGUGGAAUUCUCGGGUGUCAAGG: 0.101
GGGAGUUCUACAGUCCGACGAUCUUUAGUGACUUUGGAUGAAGUAACUGAAGAGGAUGAAGACUCUCUGGCGGAUUUUAACAACCUUAAAGAAGAGCUUAAUUUUGUUACUGUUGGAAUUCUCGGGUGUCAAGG: -3.89
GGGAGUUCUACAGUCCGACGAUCUCCUCAAGUCCUGUGCUACACAUCGUAUGUACCGAAUCGGGGCGGCGGCGGGAAAGUAUUAUGUUACGCCGUUCGGAUCUGCACUUCCAGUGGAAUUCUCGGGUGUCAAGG: 0.427
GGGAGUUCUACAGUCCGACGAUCCUCAAGUCCUGUGCUACACAUCGUAUGUACCGAAUCGGCCGGGGCCGGCCGGGAAAGUAUUAUGUUACGCCGUUCGGAUCUGCACUUCCAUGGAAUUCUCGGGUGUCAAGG: 0.14
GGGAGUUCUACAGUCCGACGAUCUGCACACCGCCUUGCACAUAGCAGAGGCUCCGGGCUCACUCCUUCCUGGUGGGAAAGGAAGAUGCCUGUCCUCUCCGUGGAAGACCCUGGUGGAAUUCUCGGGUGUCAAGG: -0.866
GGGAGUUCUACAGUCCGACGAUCGUCCUGUGCUACACAUCGUAUGUACCGAAUCGGAAAAAAAGGUUUUUUUGGUUUUUGGAAAGUAUUAUGUUACGCCGUUCGGAUCUGCACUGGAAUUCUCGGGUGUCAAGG: -2.91
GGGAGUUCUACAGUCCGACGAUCUGGGAGGUGGAUUUUGUUUAUUUUUUUAACUCAUUUCCAGGGGUGGGAAUUUUUUUUUAAUAUGUGUCAUGAAUAAAGUUGUUUUUGAAAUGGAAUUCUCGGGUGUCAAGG: -0.389
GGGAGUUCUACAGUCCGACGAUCCUGUGCUACACAUCGUAUGUACCGAAUCGGGGUUUUUUGGGGUUUUUUGGGUUUUUUGGGGAAAGUAUUAUGUUACGCCGUUCGGAUCUGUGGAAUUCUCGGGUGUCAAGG: 1.3

Block 2
Target: Sal-like protein 4, full length isoform B (SALL4, Homo sapiens, UniProt Q9UJQ4-2, residues 1-616)
Technique: universal PBM
Form: double-stranded DNA, one strand shown
Sample: in vitro
Tested at: not given
Setting: 8-mer, flanks averaged, mean of replicates
Reading: higher = stronger binding
Endpoint: E-score
ATAATCCC: 0.21
CGCGTTAC: -0.0658
CTGAGAAG: -0.151
GTTTTCCA: 0.18
AGGGATAA: 0.129
GACTTCAC: -0.26
TACGACAA: 0.0623
GTGCTGGA: -0.147
AATAGTCG: 0.0114
CATTAGTA: 0.196
GTTCGCGA: -0.0301
TCCGGCCA: -0.184
GTCCCTAA: 0.061
TAAAAGGA: 0.209
GGACACTA: -0.133
ACCCGACC: -0.201
AGATGCAC: -0.116
AGCGATAT: 0.219
TCGCCTAA: -0.128
GGAACACA: -0.0372
CATTCGCA: 0.0748

Block 3
Target: PABPC1L2, full length, GST fusion (mouse, UniProt A0ABA7IW68)
Technique: RNAcompete
Form: RNA
Sample: in vitro
Tested at: 20 nM
Setting: 7-mer, probes averaged, single round
Baseline: mean of 7-mers
Reading: higher = stronger binding
Endpoint: 7-mer Z-score
Construct (chain): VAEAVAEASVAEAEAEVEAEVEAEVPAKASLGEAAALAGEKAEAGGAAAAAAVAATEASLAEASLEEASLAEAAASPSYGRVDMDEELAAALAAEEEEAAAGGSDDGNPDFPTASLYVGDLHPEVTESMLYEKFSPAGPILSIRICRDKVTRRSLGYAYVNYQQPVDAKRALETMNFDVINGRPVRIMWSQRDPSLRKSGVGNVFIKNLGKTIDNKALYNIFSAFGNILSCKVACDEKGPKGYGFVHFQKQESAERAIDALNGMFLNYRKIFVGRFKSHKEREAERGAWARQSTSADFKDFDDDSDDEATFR
GAGGAGG: 0.189
ACACUGG: 0.0787
ACGAAAC: 0.398
UUAUUUU: -0.264
GCGCUAG: -0.119
UUAUCGU: -0.266
GACCUAA: -0.0971
GUGCGUG: 0.166
ACACCAU: -0.0355
AUCUGAG: -0.128
AGAAGCU: -0.132
CUAGAUG: -0.0917
AGUCCAC: -0.351
UUGGCUU: -0.191
UAAGACU: -0.0428
AUCUGGA: 0.000733
ACAAUGC: 0.0932
AGCCGUA: -0.269
UAUGAAG: 0.00798
CACGGUA: 0.00436
CCUACAA: -0.05
AAUCUUG: -0.11
ACGUACC: -0.24
AGAUACG: -0.224

Block 4
Target: ATP-dependent RNA helicase DDX3X, helicase core (DDX3X, Homo sapiens, UniProt O00571, residues 132-607)
Sequence of UniProt O00571 (132-607, looked up): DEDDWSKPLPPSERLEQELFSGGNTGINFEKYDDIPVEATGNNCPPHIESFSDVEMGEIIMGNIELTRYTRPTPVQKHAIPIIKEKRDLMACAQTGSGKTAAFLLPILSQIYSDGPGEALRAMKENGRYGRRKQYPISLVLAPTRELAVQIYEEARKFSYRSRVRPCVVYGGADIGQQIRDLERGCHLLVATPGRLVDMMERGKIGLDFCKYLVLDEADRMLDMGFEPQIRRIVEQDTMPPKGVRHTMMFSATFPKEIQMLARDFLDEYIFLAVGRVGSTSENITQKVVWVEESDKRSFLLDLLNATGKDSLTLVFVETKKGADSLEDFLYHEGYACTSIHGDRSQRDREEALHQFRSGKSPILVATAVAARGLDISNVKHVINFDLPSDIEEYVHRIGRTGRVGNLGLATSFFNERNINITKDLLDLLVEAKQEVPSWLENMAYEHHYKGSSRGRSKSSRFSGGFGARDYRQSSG
Technique: RNA Bind-n-Seq
Form: RNA
Sample: in vitro
Tested at: 90 pmol
Setting: 4-mer, random 30-nt RNA, single round
With: 3 µM DMDA-PatA, 2 mM ADP, 2 mM phosphate
Baseline: input library
Reading: higher = stronger binding
Endpoint: 4-mer enrichment
GAGA: 1.16 fold
UGGC: 0.881 fold
CGGC: 0.866 fold
UUAA: 1.09 fold
GCUC: 0.794 fold
CAAU: 0.928 fold
CGUU: 1.04 fold
UAUU: 0.993 fold
UGAG: 1.22 fold
UCCC: 1.1 fold
UACG: 0.899 fold
AGAA: 1.18 fold
UUUG: 1.02 fold
CCCG: 1.04 fold
CGCG: 1.32 fold

Block 5
Target: RNA binding protein fox-1 homolog 2, RRM domain, GST-SBP tag (RBFOX2, Homo sapiens, UniProt O43251-10, residues 100-194)
Technique: RNA Bind-n-Seq
Form: RNA
Sample: in vitro
Tested at: 365 nM
Setting: natural RNA segment, single round, ends assumed
Baseline: no-protein control
Reading: higher = stronger binding
Endpoint: RBNS enrichment (R)
Target sequence (chain): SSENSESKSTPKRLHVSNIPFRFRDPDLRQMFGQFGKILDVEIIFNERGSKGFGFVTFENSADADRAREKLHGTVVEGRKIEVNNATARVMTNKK
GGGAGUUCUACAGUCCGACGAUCGGUGUUCUUAGGUAAUGGGUUGUAGAUACUGAGUCUUCCUUUCCUUUUCUGACCCUUCUCGAGGACAUUUGCUUUCCUCACACUUUUGUAGUCUCUCUUUACAUAUUACUUGGAAUUCUCGGGUGCCAA: 0.979
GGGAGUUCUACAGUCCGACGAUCAAAAAAGAAACUAAAAGUUAAUAUUUAGUUGCCUAUAUUAUGUAACCUUUUAACUAUAUAUAAAGUACUUUUUUGGUUUCUUUCUCACCACUUUUAUUCAAAAGUACUUUUGGAAUUCUCGGGUGCCAA: 0.561
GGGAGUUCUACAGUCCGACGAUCGCCACCAUGCCCGGCCCAUAAGUACCGUUUUUGAGGUUCAGUCUUAAACAUUUGCUUUAAGAAAACAGUCUUGAAUUUCACAUGCUGCUAUUUUUAUAUUUUGCCAUUUUUGGAAUUCUCGGGUGCCAA: 0.687
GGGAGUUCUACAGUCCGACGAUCAAUUUUUAUUUGCAGCUUAGGUUUUUAUAUGAAGUUGCAUUAUUGUGGACUUGGCUGUCUUGUGAUGUAUUUUUUUCAUAUGUAUCCUGUGCCAUACUAUUGUUAAAAUGUGGAAUUCUCGGGUGCCAA: 0.461
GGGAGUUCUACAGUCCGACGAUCGAAAAGGAUCAUGAAACCUGAGAAAUGCUAAUGGAGAUUUGCUGGUACAUAGGAAUCUAGCAAAUUCAGGAACCAAGGGGAAAUGUUGUGAGAUAACAUUUACAUUGUCAUGGAAUUCUCGGGUGCCAA: 0.91
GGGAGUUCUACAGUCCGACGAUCAGAAGGCAGGAAGUCCUACACCAUAGUUAGAUGAACCUAACUGUACCUGGAAGUUGCCCAUUUAACUAAUUAUUCUGUCCUGUGACUGUCAUCCUUCCAGUUGUUGUGUAUGGAAUUCUCGGGUGCCAA: 0.501
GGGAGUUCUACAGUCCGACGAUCGGUGGGAGGCAAGCCAUUGAACUGAACCACGAGGAAAGUAUAUUUUCUUCUUUUCUUUUCCUGCCAAGUUUUCGGUGGCAUUUGUAGAAGCUGGUGUGAAAGGCUAGGAGUGGAAUUCUCGGGUGCCAA: 0.599
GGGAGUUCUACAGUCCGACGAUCUCCACGUCACGUCCAGCUGGGCCUGGCCAGUCUGUGGUUAUCCAUGUGGGAUGAGAUAACACCACAUCCUGCAGCUGUGAAGGGGGAUGGACAAGGGACGACGGCCGACGUGGAAUUCUCGGGUGCCAA: 0.618
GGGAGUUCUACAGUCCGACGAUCUAAAUAUUUAAGUCACAUACAUGGUAAAGAUCUAAGUUUCAUUUUCCACAUGGAUGACCAGGAACCUGGUCUUGUUGGAGCUGGCAUAGGAGGUUCUACUGUCUUGUCGUUGGAAUUCUCGGGUGCCAA: 3.89
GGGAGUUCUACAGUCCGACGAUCAUAAGGCUACUAAGCAUUAGGGCCAAUUAAAGAAUUUUAGUUUCCCUUUCUCAGACAAAUAGCUUUUAUACUUUUUUUUUUUUUUAAACUGACACAUCUGUUCUGUUGGUUGGAAUUCUCGGGUGCCAA: 0.737
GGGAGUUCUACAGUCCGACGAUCCCUCUGACACUCCUCAGAUGAACUGUUCUCAUCGGAAGCUUGCUGUCUUUUUACAAGAUGAGCUUUUACUCUCUUCCAGGAAGUAGCUUUUUUUCUAGCUGAGAAUUAAUUGGAAUUCUCGGGUGCCAA: 0.254
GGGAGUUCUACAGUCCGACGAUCUUCAUUUGAAGCUGAAUAUAUACGUAGUCAUGUUUAUGUUGAGAACUAAGGAUAUUCUUUAGCAAGAGAAAAUAUUUUCCCCUUAUCCCCACUGCUGUGGAGGUUUCUGUUGGAAUUCUCGGGUGCCAA: 0.412

Some of these lines once more (block 1):
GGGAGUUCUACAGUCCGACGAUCCCAGGAAGUAAAAACAAAUGGAAAUGCUUCGGAUAGUGGCAGGGGUGGGGGUUGCUAAGGAAAGGGUGGGAUGGGAGUGGGUAAAGAGUUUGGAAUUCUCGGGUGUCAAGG: 0.935
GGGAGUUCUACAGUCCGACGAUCGUCCUGUGCUACACAUCGUAUGUACCGAAUCGGGGUUUGGGGAAAAAAAGGGGAGGGGAAAGUAUUAUGUUACGCCGUUCGGAUCUGCACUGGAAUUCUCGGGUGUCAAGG: 0.0927
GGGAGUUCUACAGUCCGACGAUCUGGCGCUGGUGGCAUGCGGGGAGGAAGAGGUGGCCUCAUGGAUCGUGGUGGUCCCGGUGGAAUGUUCAGAGGUGGCCGUGGUGGAGACAGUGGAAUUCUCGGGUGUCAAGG: 0.101
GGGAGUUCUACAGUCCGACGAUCUUUAGUGACUUUGGAUGAAGUAACUGAAGAGGAUGAAGACUCUCUGGCGGAUUUUAACAACCUUAAAGAAGAGCUUAAUUUUGUUACUGUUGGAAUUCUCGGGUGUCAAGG: -3.89
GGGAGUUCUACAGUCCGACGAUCUCCUCAAGUCCUGUGCUACACAUCGUAUGUACCGAAUCGGGGCGGCGGCGGGAAAGUAUUAUGUUACGCCGUUCGGAUCUGCACUUCCAGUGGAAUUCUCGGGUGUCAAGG: 0.427
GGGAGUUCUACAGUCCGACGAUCCUCAAGUCCUGUGCUACACAUCGUAUGUACCGAAUCGGCCGGGGCCGGCCGGGAAAGUAUUAUGUUACGCCGUUCGGAUCUGCACUUCCAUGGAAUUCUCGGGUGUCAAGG: 0.14
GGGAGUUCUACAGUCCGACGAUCUGCACACCGCCUUGCACAUAGCAGAGGCUCCGGGCUCACUCCUUCCUGGUGGGAAAGGAAGAUGCCUGUCCUCUCCGUGGAAGACCCUGGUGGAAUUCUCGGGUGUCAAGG: -0.866
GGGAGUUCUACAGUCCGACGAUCGUCCUGUGCUACACAUCGUAUGUACCGAAUCGGAAAAAAAGGUUUUUUUGGUUUUUGGAAAGUAUUAUGUUACGCCGUUCGGAUCUGCACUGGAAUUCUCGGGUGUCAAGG: -2.91
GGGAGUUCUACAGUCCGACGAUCUGGGAGGUGGAUUUUGUUUAUUUUUUUAACUCAUUUCCAGGGGUGGGAAUUUUUUUUUAAUAUGUGUCAUGAAUAAAGUUGUUUUUGAAAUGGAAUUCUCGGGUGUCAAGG: -0.389
